Published values pooled from the literature.
Protocols differ between the studies behind these lines.
Target: Uncharacterized serine/threonine-protein kinase SBK3 (SBK3, Homo sapiens, UniProt P0C264)

COc1cc(Nc2nccc(-c3cnn4nc(OC)ccc34)n2)cc(C(F)(F)F)c1
remaining binding (binding, competition with immobilised ligand; 1 µM): 100%

CNC(=O)C1CCN(c2cc(C)c(F)cc2NC(=O)c2ccc(-c3cc(O)ccc3C)c(C)c2)CC1
remaining binding (binding, competition with immobilised ligand; 1 µM): 95%

Nc1ncc2c(n1)-c1c([nH]c3ccc(C4=CCOCC4)cc13)CCC2
remaining binding (binding, competition with immobilised ligand; 1 µM): 100%

C=CC(=O)N1CCc2ccc(-n3c(=O)ccc4cnc5ccc(-c6cnn(C)c6)cc5c43)cc21
remaining binding (KINOMEscan; 1 µM; reference: DMSO control): 100%

C=CC(=O)N1CCCC(n2c(=O)c3ncccc3n(Cc3ccc(Oc4ccccc4)cc3)c2=O)C1 (stereo not shown)
remaining binding (cell-free assay, competition with immobilised ligand; 1 µM): 83%

CNC1C[S+]2CC[S+]3CC[S+](C1)[Ru-4]321([N]=C=S)[n]2c3ccc(OC)cc3c3c4c(c5cc(F)c[n+]1c5c32)C(=O)NC4=O (stereo not shown)
remaining binding (KinomeScan; 0.1 µM; reference: untreated): 94%

COc1cc(Nc2nc(C)cc(-c3cnn4nc(OC)ccc34)n2)cc(C(F)(F)F)c1
remaining binding (binding, competition with immobilised ligand; 1 µM): 87%

Cc1cnc2nc1Nc1cccc(c1)COC/C=C/COCc1cc(ccc1OCCN1CCOCC1)N2
remaining binding (binding, competition with immobilised ligand; 0.1 µM): 100%

Cc1ccc(-c2c(/C=C(\C#N)C(=O)NC(C)C)n(CCCO)c3ncnc(N)c23)cc1
remaining binding (cell-free assay, competition with immobilised ligand; 1 µM): 95%

Cc1c[nH]c2nccc(-c3ccc(C(=O)N[C@@H]4c5c(F)cc(C(F)F)cc5C[C@@H]4O)cn3)c12
remaining binding (binding, competition with immobilised ligand; 3 µM): 23%

COc1c(Cl)cccc1Nc1c(-c2ccncc2C#C[C@@]2(C)CCCN2C(=O)/C=C/CN(C)C)[nH]c2c1C(=O)NCC2
remaining binding (binding, competition with immobilised ligand; 3 µM): 92%

CCN1CCN(Cc2ccc(C(=O)Nc3ccc(C)c(NCc4cnc5[nH]ccc5c4OC)c3)cc2C(F)(F)F)CC1
remaining binding (binding, competition with immobilised ligand; 1 µM): 100%

CC(C)=CC1OC(C)(C)C2C=C3C(=O)C(Cl)=CC(O)C3C3C(O)C4OC4C(=O)C132 (stereo not shown)
remaining binding (cell-free assay, competition with immobilised ligand; 10 µM): 100%
